Measurements of several laboratories.
Each line is one published result; not all experiments were run side by side.
Cell line: NCI-H226

COc1cc(CNC(=O)C[C@H](C)CCC=C(C)C)ccc1OCc1cn(-c2ccc(F)cc2)nn1  growth percent (SRB; 10 µM, 48 h): 51.4%
CC(Cc1ccc(Cl)cc1)=C(c1ccc(Cl)cc1)c1ccc(OCCN(C)C)cc1  GI50 (cell growth or viability, SRB): 4.99 µM
C=C(F)C(=O)Nc1cnn2ccc(-c3ccc(C4CCCCC4)cc3)nc12  mRNA level decrease (RT-qPCR, measured: CYR61, CTGF, ANKRD1; 10 µM, 24 h): ≤ 75%
CC(=O)OC[C@H]1O[C@@H](Sc2sc(C(=O)c3ccc(Br)cc3)c(N)c2-c2nc3ccccc3s2)[C@H](OC(C)=O)[C@@H](OC(C)=O)[C@H]1OC(C)=O  growth (SRB; 10 µM, 48 h; relative to: untreated): 65.6%
CC/C=C\C/C=C\C/C=C\C/C=C\C/C=C\C/C=C\CCC(=O)Nc1ccn(C2OC(CO)C(O)C2(F)F)c(=O)n1 (stereo not drawn)  GI50 (cell growth or viability, SRB): 0.0672 µM
COc1cc(CNC(=O)C[C@H](C)CCC=C(C)C)ccc1OCc1cn(-c2ccc(Cl)c(Cl)c2)nn1  growth percent (SRB; 10 µM, 48 h): 50.5%
CC(=O)OC[C@H]1O[C@@H](Sc2sc(C(=O)c3ccc(C)cc3)c(N)c2-c2nc3ccccc3s2)[C@H](OC(C)=O)[C@@H](OC(C)=O)[C@@H]1OC(C)=O  growth (SRB; 10 µM, 48 h; relative to: untreated): 30.3%
COc1cc(CNC(=O)C[C@H](C)CCC=C(C)C)ccc1OCc1cn(-c2ccc(C#N)cc2)nn1  growth percent (SRB; 10 µM, 48 h): 54.9%
CC(=C(c1ccc(O)cc1)c1ccc(Cl)cc1)c1ccc(Cl)cc1  GI50 (cell growth or viability, SRB): 2.75 µM

Some of these lines once more:
CC(=C(c1ccc(O)cc1)c1ccc(Cl)cc1)c1ccc(Cl)cc1  GI50 (cell growth or viability, SRB): 2.75 µM
